Experimental data gathered from unrelated publications.
Organism: Escherichia coli

SMILES | assay | test system | setting | MIC
Cc1cc(N)c2cc(NC(=O)c3ccc4cc(C(=O)N5CCN(C)CC5)ccc4c3)ccc2n1 | – | BW25113 wild type | – | > 200 µM
C[C@@](O)(C(F)F)[C@H](NC(=O)c1ccc(C#CC#CC2CC2)cc1)C(=O)NO | – | ATCC 25922 | – | 0.02 µg/mL
Cc1cc(N)c2cc(NC(=O)c3ccc4c(-c5cccc(N)c5)cccc4c3)ccc2n1 | – | ΔtolC efflux-deficient | – | 12.5 µM
CCCCCCCCCCCCCCCCCCCCCCSCC1OC(OC2C(N)CC(N)C(OC3OC(CN)C(O)CC3N)C2O)C(O)C(N)C1O (stereo not shown) | – | TolC, strain R | – | > 150 µg/mL
CCCCCCCCCCCCCC(=O)N[C@@H](CCCCN)C(=O)N[C@@H](CCCCN)C(=O)N[C@@H](CCCCN)C(=O)N[C@@H](CCCCN)C(=O)N[C@@H](CCCCN)C(N)=O | broth microdilution | K12 | 16-24 h, 37 °C, prepared at pH 7 | 32 µg/mL
CCO[C@H]1[C@H](O)[C@@H](N)[C@@H](O[C@H]2[C@H](O[C@@H]3O[C@H](CO)[C@@H](O[C@H]4O[C@@H](CN)[C@@H](O)[C@H](O)[C@H]4N)[C@H]3O)[C@@H](O)[C@H](N)C[C@@H]2N)O[C@@H]1CO | broth microdilution | clinical isolate AG 001 | – | 64 µg/mL
CCCCCCCCCCCCCCCC(=O)N(C)[C@H](CO)C(=O)N[C@H](C)C(=O)NCC(=O)N(C)[C@@H]1C(=O)N[C@@H](C)C(=O)N[C@H](C(=O)O)Cc2ccc(O)c(c2)-c2cc1ccc2O[C@@H]1O[C@@H](C)[C@H](O)[C@@H](O)[C@H]1O | broth microdilution | MG1655 | cation-adjusted Mueller Hinton II | inactive
CC[C@H](C)[C@H](NC(=O)[C@H](CCN)NC(=O)[C@H](Cc1ccccc1)NC(=O)[C@H](Cc1ccccc1)NC(=O)CCCCCOC(=O)c1cn(C2CC2)c2cc(N3CCNCC3)c(F)cc2c1=O)C(=O)N[C@@H](CCN)C(=O)N[C@H](Cc1ccccc1)C(=O)N[C@@H](CC(C)C)C(=O)N[C@@H](CCN)C(=O)N[C@@H](C(=O)N[C@@H](CC(C)C)C(=O)N[C@@H](CO)C(N)=O)C(C)C | – | – | 24 h, 37 °C | 1.56 µM
CC(C)C[C@@H]1NC(=O)[C@@H](CC(C)C)NC(=O)[C@H](CCN)NC(=O)[C@@H](NC(=O)[C@H](CCN)NC(=O)[C@@H](N)[C@@H](C)O)CCNC(=O)[C@H]([C@@H](C)O)NC(=O)[C@H](CCN)NC(=O)[C@H](CCN)NC1=O | broth microdilution | mcr-1, colistin-resistant, CAMHB with 0.002% polysorbate-80 | 16 h, 37 °C | > 64 µg/mL
NCC1OC(OC2C(N)CC(N)C(OC3OC(CSc4ccccc4)C(O)C(N)C3O)C2O)C(N)CC1O (stereo not shown) | – | BL21(DE3) pET22b | – | 37.5 µg/mL
CC[C@H](C)[C@H](NC(=O)[C@H](CCCNC(=N)N)NC(=O)[C@H](Cc1ccccc1)NC(=O)[C@H](CC(C)C)NC(=O)[C@H](CCCCN)NC(=O)[C@H](CO)NC(=O)[C@@H](NC(=O)[C@H](CC(C)C)NC(=O)[C@H](CCCCN)NC(=O)[C@H](C)NC(=O)[C@H](CC(N)=O)NC(=O)[C@H](CCCNC(=N)N)NC(=O)[C@H](Cc1ccc(O)cc1)NC(=O)[C@H](C)NC(=O)[C@@H](NC(=O)[C@H](CCCCN)NC(=O)[C@H](CC(N)=O)NC(=O)[C@H](CCCCN)NC(=O)[C@H](CC(C)C)NC(=O)[C@H](CO)NC(=O)[C@H](CC(C)C)NC(=O)[C@H](C)NC(=O)[C@H](C)NC(=O)[C@H](CO)NC(=O)[C@@H](NC(=O)[C@@H](NC(=O)[C@H](Cc1c[nH]c2ccccc12)NC(=O)[C@@H](NC(=O)[C@H](CO)NC(=O)[C@@H](NC(=O)[C@@H](N)CC(C)C)C(C)C)C(C)C)[C@@H](C)CC)[C@@H](C)CC)C(C)C)C(C)C)C(=O)N[C@@H](C)C(=O)N[C@@H](CC(C)C)C(=O)O | broth microdilution | ATCC 25922 | 24 h, 37 °C | 2 µg/mL
N=C(N)NCCC[C@@H]1NC(=O)[C@H](CCCNC(=N)N)NC(=O)[C@H](CCCNC(=N)N)NC(=O)[C@H](CCCNC(=N)N)NC(=O)[C@H](Cc2c[nH]c3ccccc23)NC(=O)[C@H](CCCNC(=N)N)NC(=O)[C@H](CCCNC(=N)N)NC(=O)[C@@H](N)CCn2cc(nn2)C[C@@H](C(N)=O)NC1=O | – | ATCC 25922 | 24 h, 37 °C | 125 µg/mL
C=CCCC[C@@H]1NC(=O)[C@H](CC(C)C)NC(=O)[C@H](C)NC(=O)[C@H](NC(=O)[C@H](CO)NC(=O)[C@@H](CCCCN)NC(=O)[C@@H](CCCC=C)NC(=O)[C@@H](N)Cc2ccccc2)[C@H](C)OC1=O | – | ATCC 10798 | TFA salt | 32 µg/mL
CC[C@H](C)[C@H](NC(=O)[C@H](Cc1ccc(O)cc1)NC(=O)[C@@H](NC(=O)[C@@H]1C[C@@H](O)CN1C(=O)[C@H](CCCNC(=N)N)NC(=O)[C@H](CC(N)=O)NC(=O)[C@H](CC(N)=O)NC(=O)[C@H](CCCN)N=C(N(C)C)N(C)C)C(C)C)C(=O)N1C[C@H](O)C[C@H]1C(=O)N[C@@H](CCCNC(=N)N)C(=O)N1C[C@H](O)C[C@H]1C(=O)N[C@@H](CCCNC(=N)N)C(=O)N1C[C@H](O)C[C@H]1C(=O)N1C[C@H](O)C[C@H]1C(=O)N[C@@H](Cc1c[nH]cn1)C(=O)N1C[C@H](O)C[C@H]1C(=O)N[C@@H](CCCNC(=N)N)C(=O)N[C@@H](CC(C)C)C(=O)O | broth microdilution | BL21 | overnight, 37 °C | 10 µM
CC[C@H](C)[C@H](NC(=O)[C@H](CC(C)C)NC(=O)CCNC(=O)[C@H](CO)NC(=O)[C@H](CCCNC(=N)N)NC(=O)[C@@H](N)CO)C(=O)N[C@H](C(=O)N[C@@H](Cc1c[nH]cn1)C(=O)N[C@@H](CCC(N)=O)C(=O)N[C@@H](CCCNC(=N)N)C(=O)N[C@@H](CC(C)C)C(=O)N[C@@H](Cc1ccccc1)C(N)=O)C(C)C | broth microdilution | Mueller Hinton broth | – | > 400 µg/mL
Cc1ccc2nc(C(F)(F)F)c(C(=O)NCc3cccc(Cl)c3)n2c1 | broth microdilution | 3 | – | > 64 µM
NCCCC[C@@H]1NC(=O)[C@@H](CCCCN)NC(=O)[C@H](CCCCN)NC(=O)[C@@H](CCCCN)NC(=O)[C@H](Cc2c[nH]c3ccccc23)NC(=O)[C@@H](Cc2c[nH]c3ccccc23)NC(=O)[C@@H](N)CSCc2ccc(cc2)CSC[C@@H](C(N)=O)NC(=O)[C@@H](Cc2c[nH]c3ccccc23)NC(=O)[C@H](Cc2c[nH]c3ccccc23)NC(=O)[C@@H](CCCCN)NC1=O | – | W3110 | – | 32 µg/mL
CC[C@H](C)[C@H](NC(=O)[C@H](CO)NC(=O)[C@H](CO)NC(=O)[C@H](Cc1ccccc1)NC(=O)CN)C(=O)N[C@@H](Cc1ccccc1)C(=O)N[C@@H](CCCNC(=N)N)C(=O)NCC(=O)N[C@H](C(=O)N[C@@H](C)C(=O)N[C@@H](CCCCN)C(=O)N[C@@H](Cc1ccccc1)C(=O)N[C@@H](C)C(=O)N[C@@H](CO)C(=O)N[C@@H](CCCCN)C(=O)NCC(=O)N[C@@H](CC(C)C)C(=O)NCC(=O)N[C@@H](CCCCN)C(=O)N[C@@H](CC(=O)O)C(=O)N[C@@H](CC(C)C)C(=O)N[C@@H](C)C(=O)N[C@@H](CCCNC(=N)N)C(N)=O)C(C)C | – | ATCC 8739 | together with: 2.5 mM CaCl2 | > 128 µM
C[C@H](N)[C@@H](CCCCCCCCCCCCCCC(=O)CCCCCCC[C@@H](O)[C@@H](C)N)O[C@@H]1O[C@H](CO)[C@H](O)[C@H](O)[C@H]1O | microbial growth, resazurin | ATCC10536 | 6 h | 10.9 µM
CC[C@@H](C)[C@H](NC(=O)[C@H](C)NC(=O)[C@H](CCCCN)NC(=O)[C@H](CC(C)C)NC(=O)[C@H](C)NC(=O)[C@@H](NC(=O)[C@H](Cc1c[nH]cn1)NC(=O)[C@H](CC(C)C)NC(=O)[C@@H](NC(=O)[C@@H](NC(=O)[C@H](CCCCN)NC(=O)[C@H](CCCCN)NC(=O)[C@H](C)NC(=O)[C@H](CO)NC(=O)[C@H](CCCCN)NC(=O)[C@H](Cc1ccccc1)NC(=O)[C@@H](NC(=O)[C@H](CCCCN)NC(=O)[C@H](CC(C)C)NC(=O)[C@H](Cc1ccccc1)NC(=O)[C@H](CO)NC(=O)[C@H](CCCCN)NC(=O)[C@H](Cc1c[nH]c2ccccc12)NC(=O)[C@H](CCCCN)NC(C)=O)[C@@H](C)O)[C@@H](C)O)C(C)C)[C@@H](C)O)C(=O)N[C@@H](CO)C(=O)N[C@@H](CO)C(N)=O | broth dilution | ATCC 25922, Mueller-Hinton broth | 24 h, 37 °C | 8 µg/mL
CC[C@H](C)[C@H](NC(=O)[C@@H](Cc1ccccc1)NC)C(=O)N[C@@H](CO)C(=O)N[C@H](CCC(N)=O)C(=O)N[C@@H](C(=O)N[C@H](C(=O)N[C@@H](CO)C(=O)N[C@H]1C(=O)N[C@@H](C)C(=O)N[C@@H](C2CCCCC2)C(=O)N[C@@H]([C@@H](C)CC)C(=O)O[C@H]1C)[C@@H](C)CC)[C@@H](C)CC | broth microdilution | ATCC 10798, Mueller-Hinton broth | 16 h, 37 °C | > 8 µg/mL
CCCCCCCCCCCCCCCCC(=O)N[C@@H](CCCCN)C(=O)N[C@@H](CCCCN)C(=O)N[C@@H](CCCCN)C(=O)N[C@@H](CCCCN)C(=O)N[C@@H](CCCCN)C(N)=O | broth microdilution | K12, water pH 7 | 18 h, 37 °C | 4 µg/mL
C/C(=N/NC(=N)N)c1nnn(-c2ccc(C#CC(C)(C)O)cc2)c1C | broth microdilution | JW55031 tolC mutant | – | 64 µg/mL
CC(C)C[C@H](NC(=O)[C@H](CC(C)C)NC(=O)[C@H](CCCCN)NC(=O)[C@@H]1CCCN1C(=O)[C@H](CC(C)C)NC(=O)[C@H](CC(C)C)NC(=O)[C@H](CCCCN)NC(=O)[C@H](CC(C)C)NC(=O)[C@H](CC(C)C)NC(=O)[C@H](CO)NC(=O)CNC(=O)[C@H](Cc1ccccc1)NC(=O)[C@@H](N)Cc1ccccc1)C(N)=O | broth microdilution | K12 | – | 12.5 µM
CCCCCCCCCCCCCCCCCCSCC1OC(OC2C(N)CC(N)C(OC3OC(CN)C(O)CC3N)C2O)C(O)C(N)C1O (stereo not shown) | – | BL21(DE3) AAC(6')/APH(2'') | – | > 150 µg/mL

Some of these lines once more:
SMILES | assay | test system | setting | MIC
CCCCCCCCCCCCCCCC(=O)N(C)[C@H](CO)C(=O)N[C@H](C)C(=O)NCC(=O)N(C)[C@@H]1C(=O)N[C@@H](C)C(=O)N[C@H](C(=O)O)Cc2ccc(O)c(c2)-c2cc1ccc2O[C@@H]1O[C@@H](C)[C@H](O)[C@@H](O)[C@H]1O | broth microdilution | MG1655 | cation-adjusted Mueller Hinton II | inactive
